Results collected from several papers.
Each numbered part is a random draw from the data of one study; scales do not carry over between parts. Several values in a cell are separate wells, animals, samples, runs or records.
Sequence of UniProt Q5S007 (whole entry, looked up): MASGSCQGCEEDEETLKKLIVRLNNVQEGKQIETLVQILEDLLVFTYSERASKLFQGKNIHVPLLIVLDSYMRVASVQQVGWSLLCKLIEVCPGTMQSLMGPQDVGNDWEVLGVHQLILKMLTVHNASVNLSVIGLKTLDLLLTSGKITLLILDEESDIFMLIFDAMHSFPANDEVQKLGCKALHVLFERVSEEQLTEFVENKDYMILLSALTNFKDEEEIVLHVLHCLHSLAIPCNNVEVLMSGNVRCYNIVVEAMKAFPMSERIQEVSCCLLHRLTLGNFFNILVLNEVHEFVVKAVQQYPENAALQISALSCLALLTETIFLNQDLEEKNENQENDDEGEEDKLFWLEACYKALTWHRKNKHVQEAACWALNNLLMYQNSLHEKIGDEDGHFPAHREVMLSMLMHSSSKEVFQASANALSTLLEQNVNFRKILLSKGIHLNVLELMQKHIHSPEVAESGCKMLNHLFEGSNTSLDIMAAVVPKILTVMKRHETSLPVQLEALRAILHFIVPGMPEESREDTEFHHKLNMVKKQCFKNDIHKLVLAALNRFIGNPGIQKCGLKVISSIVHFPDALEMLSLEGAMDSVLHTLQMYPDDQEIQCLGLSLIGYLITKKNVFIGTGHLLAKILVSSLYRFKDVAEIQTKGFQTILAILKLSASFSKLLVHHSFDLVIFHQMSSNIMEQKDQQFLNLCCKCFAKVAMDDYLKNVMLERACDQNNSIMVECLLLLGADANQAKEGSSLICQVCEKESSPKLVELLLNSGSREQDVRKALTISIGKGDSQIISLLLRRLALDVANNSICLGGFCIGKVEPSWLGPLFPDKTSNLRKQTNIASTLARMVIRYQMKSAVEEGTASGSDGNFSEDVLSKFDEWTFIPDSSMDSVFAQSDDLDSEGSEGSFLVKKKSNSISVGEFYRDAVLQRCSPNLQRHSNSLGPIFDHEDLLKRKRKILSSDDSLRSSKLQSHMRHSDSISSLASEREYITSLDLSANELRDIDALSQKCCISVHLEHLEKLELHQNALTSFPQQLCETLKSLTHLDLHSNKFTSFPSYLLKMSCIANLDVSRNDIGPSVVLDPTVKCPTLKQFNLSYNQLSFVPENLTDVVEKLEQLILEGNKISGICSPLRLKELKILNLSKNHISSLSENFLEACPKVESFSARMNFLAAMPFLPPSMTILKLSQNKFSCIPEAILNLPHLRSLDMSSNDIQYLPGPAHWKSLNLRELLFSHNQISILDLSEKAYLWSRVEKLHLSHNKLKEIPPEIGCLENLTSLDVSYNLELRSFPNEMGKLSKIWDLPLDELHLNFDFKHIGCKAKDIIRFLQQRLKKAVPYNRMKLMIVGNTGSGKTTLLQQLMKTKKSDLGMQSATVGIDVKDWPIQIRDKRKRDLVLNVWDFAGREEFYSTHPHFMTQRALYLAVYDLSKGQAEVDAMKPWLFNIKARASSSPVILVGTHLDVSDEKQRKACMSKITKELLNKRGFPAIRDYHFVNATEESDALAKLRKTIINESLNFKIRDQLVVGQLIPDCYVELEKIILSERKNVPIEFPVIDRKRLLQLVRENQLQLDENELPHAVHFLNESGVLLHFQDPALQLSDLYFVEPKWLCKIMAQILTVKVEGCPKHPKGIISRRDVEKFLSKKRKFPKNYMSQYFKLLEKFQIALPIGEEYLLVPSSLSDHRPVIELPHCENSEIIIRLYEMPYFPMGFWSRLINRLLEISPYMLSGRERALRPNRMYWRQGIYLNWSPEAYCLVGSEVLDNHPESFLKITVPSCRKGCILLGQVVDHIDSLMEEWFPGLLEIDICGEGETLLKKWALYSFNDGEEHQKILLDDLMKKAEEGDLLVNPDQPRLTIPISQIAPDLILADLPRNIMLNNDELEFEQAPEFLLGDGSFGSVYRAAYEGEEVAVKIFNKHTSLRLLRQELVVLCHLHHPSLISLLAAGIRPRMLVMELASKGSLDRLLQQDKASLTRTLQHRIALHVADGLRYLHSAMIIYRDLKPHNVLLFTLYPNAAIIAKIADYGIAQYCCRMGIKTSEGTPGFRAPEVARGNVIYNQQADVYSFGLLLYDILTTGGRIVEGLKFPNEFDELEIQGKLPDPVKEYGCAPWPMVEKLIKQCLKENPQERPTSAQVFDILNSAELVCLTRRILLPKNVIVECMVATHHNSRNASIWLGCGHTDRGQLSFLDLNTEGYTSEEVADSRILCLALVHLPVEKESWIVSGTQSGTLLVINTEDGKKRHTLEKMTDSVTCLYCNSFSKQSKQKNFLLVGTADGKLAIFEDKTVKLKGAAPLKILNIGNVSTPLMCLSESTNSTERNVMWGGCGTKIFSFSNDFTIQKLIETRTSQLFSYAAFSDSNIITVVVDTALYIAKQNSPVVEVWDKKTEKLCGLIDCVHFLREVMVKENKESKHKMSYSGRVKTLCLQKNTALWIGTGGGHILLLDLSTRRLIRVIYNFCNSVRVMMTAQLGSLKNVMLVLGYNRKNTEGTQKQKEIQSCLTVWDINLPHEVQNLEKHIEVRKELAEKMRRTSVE
Sequence of UniProt Q16288 (whole entry, looked up): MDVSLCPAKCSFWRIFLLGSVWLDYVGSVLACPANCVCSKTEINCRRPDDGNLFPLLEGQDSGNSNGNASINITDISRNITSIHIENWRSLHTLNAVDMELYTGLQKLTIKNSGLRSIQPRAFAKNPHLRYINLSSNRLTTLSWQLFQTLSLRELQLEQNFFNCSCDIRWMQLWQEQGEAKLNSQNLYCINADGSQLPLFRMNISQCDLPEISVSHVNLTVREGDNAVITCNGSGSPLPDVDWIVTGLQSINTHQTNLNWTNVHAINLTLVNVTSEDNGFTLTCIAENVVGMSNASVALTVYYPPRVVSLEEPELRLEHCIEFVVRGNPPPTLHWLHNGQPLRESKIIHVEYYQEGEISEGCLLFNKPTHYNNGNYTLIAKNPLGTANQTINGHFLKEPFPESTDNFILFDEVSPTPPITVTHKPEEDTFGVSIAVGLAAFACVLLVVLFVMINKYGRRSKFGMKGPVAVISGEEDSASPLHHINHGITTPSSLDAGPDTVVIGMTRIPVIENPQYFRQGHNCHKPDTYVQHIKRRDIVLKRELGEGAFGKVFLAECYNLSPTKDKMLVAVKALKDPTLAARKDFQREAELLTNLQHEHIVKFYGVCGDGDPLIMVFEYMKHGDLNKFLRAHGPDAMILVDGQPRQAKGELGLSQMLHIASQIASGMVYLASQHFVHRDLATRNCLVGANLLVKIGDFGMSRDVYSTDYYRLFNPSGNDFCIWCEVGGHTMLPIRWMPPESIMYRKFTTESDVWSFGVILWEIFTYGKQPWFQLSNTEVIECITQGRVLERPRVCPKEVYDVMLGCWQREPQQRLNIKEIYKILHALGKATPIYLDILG
Sequence of UniProt P37023 (whole entry, looked up): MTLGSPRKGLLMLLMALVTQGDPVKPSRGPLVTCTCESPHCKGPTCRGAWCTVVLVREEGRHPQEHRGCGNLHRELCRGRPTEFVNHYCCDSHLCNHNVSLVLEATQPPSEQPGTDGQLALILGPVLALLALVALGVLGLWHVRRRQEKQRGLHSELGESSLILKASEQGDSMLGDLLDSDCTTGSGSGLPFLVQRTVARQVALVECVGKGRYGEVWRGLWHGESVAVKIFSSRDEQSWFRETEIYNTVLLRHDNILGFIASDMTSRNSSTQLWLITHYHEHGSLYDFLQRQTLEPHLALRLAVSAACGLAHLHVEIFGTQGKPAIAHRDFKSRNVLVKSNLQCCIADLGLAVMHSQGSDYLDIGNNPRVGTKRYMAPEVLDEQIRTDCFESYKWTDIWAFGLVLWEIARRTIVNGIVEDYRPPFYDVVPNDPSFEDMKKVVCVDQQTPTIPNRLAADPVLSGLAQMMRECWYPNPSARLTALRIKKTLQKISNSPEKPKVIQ

Study 1
Compound: Cc1cc(-n2nc(Cc3cc(F)cc(C(F)(F)F)c3)nc2C)ccc1C(N)=O
Method: competition with immobilised ligand
Tested at: 1 µM
Measurement: remaining binding
target = FLT3 (Homo sapiens, UniProt P36888, F691L/ITD); read-out = cell-free assay; result = 100%
target = STK17A (Homo sapiens, UniProt Q9UEE5); read-out = cell-free assay; result = 100%
target = LRRK2 (Homo sapiens, UniProt Q5S007); read-out = cell-free assay; result = 99%
target = ACVRL1 (Homo sapiens, UniProt P37023); read-out = binding; result = 100%
target = CDKL3 (Homo sapiens, UniProt Q8IVW4); read-out = cell-free assay; result = 83%
target = Tyrosine-protein kinase ABL1, non-phosphorylated (ABL1, Homo sapiens, UniProt P00519, F317I); read-out = binding; result = 100%
target = NTRK3 (Homo sapiens, UniProt Q16288); read-out = cell-free assay; result = 94%
target = PLK4 (Homo sapiens, UniProt O00444); read-out = cell-free assay; result = 84%
target = ULK1 (Homo sapiens, UniProt O75385); read-out = cell-free assay; result = 100%
target = NEK2 (Homo sapiens, UniProt P51955); read-out = cell-free assay; result = 100%
target = RIOK1 (Homo sapiens, UniProt Q9BRS2); read-out = cell-free assay; result = 85%
target = COQ8A (Homo sapiens, UniProt Q8NI60); read-out = cell-free assay; result = 100%
target = CDKL2 (Homo sapiens, UniProt Q92772); read-out = cell-free assay; result = 100%
target = Tyrosine-protein kinase ABL1, phosphorylated (ABL1, Homo sapiens, UniProt P00519, H396P); read-out = cell-free assay; result = 98%

Study 2
Host: mouse
Sample: microsomes or S9
Tested at: 2 µM
Time: 0.5 h
Measurement: remaining compound
SMILES = O=S(=O)(NCCNCC1(O)CNCCOC1)c1ccc(Cl)cc1 (stereo not shown); result = 77.6%
SMILES = CC(C)NC(=O)Nc1ccc(O)c(-c2nc(-c3nnc[nH]3)no2)c1; result = > 99%
SMILES = CCCS(=O)(=O)N1CCC(Oc2nccnc2N2CCOCC2)C1 (stereo not shown); result = 41.6%
SMILES = O=c1ccc(-c2ccc(S(=O)(=O)NCc3cccc(Br)c3)s2)n[nH]1; result = 56.5%
SMILES = CNC(=O)COc1cccc2c1[C@@H]1O[C@H](C)CC[C@H]1[C@](C)(CCCC(C)C)O2; result = 74%
SMILES = COC(=O)C1(C(=O)OC)C(CC(=O)c2ccc(C)cc2)c2cc(N(C)C)ccc2C(c2ccccc2)N1S(=O)(=O)c1ccc(C)cc1 (stereo not shown); result = 5.37%
SMILES = CC(C)Cn1c(=O)c2ccc(C(=O)NC3CCCCC3)cc2n2c(=O)n(Cc3ccccc3)nc12; result = 45.5%
SMILES = CCC(=O)OC(COC)c1ccccc1CS(N)(=O)=O (stereo not shown); result = 14.3%

Study 3
Cell line: mouse MPNST tumor cells
Method: high-content immunofluorescence imaging
Item: nuclear SOX9
Tested at: 10 µM
Time: 12 h
Setting: mean of 2 replicates
Reference: DMSO control
Direction: higher = more nuclear SOX9
Measurement: nuclear SOX9 intensity
SMILES = N[C@@H](Cc1cc(I)c(Oc2ccc(O)c(I)c2)c(I)c1)C(=O)O; result = 90.9 % of DMSO and 87.6 % of DMSO
SMILES = O/N=C/c1ccc(-c2ccc(O)c(F)c2)c(Cl)c1O; result = 95.2 % of DMSO
SMILES = CC(C)(C)NS(=O)(=O)c1cncc(-c2cc(F)c3nc(N)nn3c2)c1; result = 94 % of DMSO
SMILES = NCCc1cc[nH]n1; result = 99.7 % of DMSO
SMILES = O=c1cc(N2CCOCC2)oc2c(-c3ccccc3)cccc12; result = 103 % of DMSO
SMILES = CC(C)(C)c1ccc(S(=O)(=O)NCc2ccc(C(=O)Nc3cccnc3)cc2)cc1; result = 99.8 % of DMSO

Study 4
Organism: Sarcocystis neurona
Read-out: parasite activity
Tested at: 10 µM
Time: 96 h
Measurement: activity class
SMILES = CCOC(=O)O[C@]1(C(=O)OCCl)CC[C@H]2[C@@H]3CCC4=CC(=O)C=C[C@]4(C)[C@H]3[C@@H](O)C[C@@]21C; result = inactive
SMILES = COc1cc2c(cc1OC)C(=O)C(CC1CCN(Cc3ccccc3)CC1)C2 (stereo not shown); result = inactive
SMILES = Cc1c2oc3c(C)ccc(C(=O)N[C@@H]4C(=O)N[C@H](C(C)C)C(=O)N5CCC[C@H]5C(=O)N(C)CC(=O)N(C)[C@@H](C(C)C)C(=O)O[C@@H]4C)c3nc-2c(C(=O)N[C@@H]2C(=O)N[C@H](C(C)C)C(=O)N3CCC[C@H]3C(=O)N(C)CC(=O)N(C)[C@@H](C(C)C)C(=O)O[C@@H]2C)c(N)c1=O; result = inactive
SMILES = CC(=O)OCC(=O)NCCCOc1cccc(CN2CCCCC2)c1; result = inactive
SMILES = CCCNC(=O)NS(=O)(=O)c1ccc(Cl)cc1; result = inactive
SMILES = NS(=O)(=O)Cc1noc2ccccc12; result = inactive
